Assay results collected from several papers.
Every numbered part comes from another study and shows a few of its results, in no order. Changes are numbered by the printed parent chain.

Series 1
Target: Ras GTPase-activating protein-binding protein 1, full length (G3BP1, Homo sapiens, UniProt Q13283)
Chain of UniProt Q13283 (whole entry, looked up): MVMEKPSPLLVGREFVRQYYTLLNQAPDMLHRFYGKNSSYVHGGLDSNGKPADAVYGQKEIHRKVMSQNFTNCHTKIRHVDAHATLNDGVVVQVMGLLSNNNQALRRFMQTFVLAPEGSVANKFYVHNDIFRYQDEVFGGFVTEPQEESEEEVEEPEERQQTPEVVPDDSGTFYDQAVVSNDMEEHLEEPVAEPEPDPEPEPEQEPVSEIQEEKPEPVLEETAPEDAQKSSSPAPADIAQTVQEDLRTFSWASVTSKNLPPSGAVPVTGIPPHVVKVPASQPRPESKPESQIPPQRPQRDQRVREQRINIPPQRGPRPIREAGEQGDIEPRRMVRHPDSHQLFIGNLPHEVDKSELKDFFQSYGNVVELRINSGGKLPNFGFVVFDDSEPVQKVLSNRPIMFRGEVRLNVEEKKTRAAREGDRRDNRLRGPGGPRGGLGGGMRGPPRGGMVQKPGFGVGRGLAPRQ
Technique: RNA Bind-n-Seq
Form: RNA
Medium: in vitro
Tested at: 200 nM
Notes: whole 134-nt RNA, ends assumed
With: 150 mM KCl
Relative to: input library
Reading: higher = stronger binding
All sequences stand within: GGGAGUUCUACAGUCCGACGAUC … UGGAAUUCUCGGGUGUCAAGG
| Sequence | log2 enrichment |
| --- | --- |
| UAACUUUAGAGGAGGAUCUGAUGGAUACGGCAGUGGACGUGGAUUUGGGGAUGGCUAUAAUGGGUAUGGAGGAGGACCUGGAGGUGGCAA | 0.392 |
| AGUCCUGUGCUACACAUCGUAUGUACCGAAUCAAAUUUAAAUUUAAACCCCCCCAAAAAAGUAUUAUGUUACGCCGUUCGGAUCUGCACU | -0.0485 |
| UGGCCCUGGUGGCAUGCGGGGAGGAACAGGUGGCCUCAUGGAUCGUGGUGGUCCCGGUGGAAUGUUCAGAGGUGGCCGUGGUGGAGACAG | 0.193 |
| UGGCCCUGGUGGCAGGCGGGGAGGAAGAGGUGGCCUCAUGGAUCGUGGUGGUCCCGGUGGAAUGUUCAGAGGUGGCCGUGGUGGAGACAG | 0.553 |
| UGGGAGGUGGAUUUUGUUUAUUUUUUUAGCUCAUUUCCAGGGGUCGGAAUUUUUUUUUAAUAUGUGUCAUGAAUAAAGUUGUUUUUGAAA | 0.00631 |
| CAAGUCCUGUGCUACACAUCGUAUGUACCGAAUCGGGUUUGGGAAAGGGAAAGGGAAAGUAUUAUGUUACGCCGUUCGGAUCUGCACUUC | 0.618 |
| GUCCUGUGCUACACAUCGUAUGUACCGAAUCGGGGUUUUUUGGUUUUUUGGUUUUUUGGAAAGUAUUAUGUUACGCCGUUCGGAUCUGCA | -0.863 |
| GUCCUGUGCUACACAUCGUAUGUACCGAAUCGGGGUUUGGGGUUUGGGGUUUUUGGGGAAAGUAUUAUGUUACGCCGUUCGGAUCUGCAC | 0.852 |
| UGGCCCUGGUGGCAUGCGGGGAGGAAGAGGUGGCCUCAUGGGUCGUGGUGGUCCCGGUGGAAUGUUCAGAGGUGGCCGUGGUGGAGACAG | 0.155 |
| CUCAAGUCCUGUGCUACACAUCGUAUGUACCGAAUCGGCCGGCCGGGGCCGGGGAAAGUAUUAUGUUACGCCGUUCGGAUCUGCACUUCC | -0.497 |
| UGGCCCUGGUGGCAUGCGGGGAGGAAGAGGUGGCCUCAUGGAUCGUGGUGGUCCCGGUGGAAUGUUCAGAGGUGGCCGGGGUGGAGACAG | 0.187 |
| UCAAGUCCUGUGCUACACAUCGUAUGUACCGAAUCGGUUGGGGUUGGGGUUGGGGAAAGUAUUAUGUUACGCCGUUCGGAUCUGCACUUC | 0.498 |
| CUCAAGUCCUGUGCUACACAUCGUAUGUACCGAAUCGGGUUGGUUGGGGUUGGGAAAGUAUUAUGUUACGCCGUUCGGAUCUGCACUUCC | 0.658 |
| UGGCCCUGGUGGCAUGCGGGGAGGAAGAGGUGGCCUCAUGGAUCGUGGUGGUCCCGGUGGAAUGUUCAGAGGUGGCCAUGGUGGAGACAG | -0.0424 |

Series 2
Target: Histone acetyltransferase KAT6A, both winged helices, GST fusion (KAT6A, Homo sapiens, UniProt Q92794, residues 1-181)
Technique: protein binding microarray
Form: double-stranded DNA, one strand shown
Medium: in vitro
Tested at: not given
Notes: 8-mer, flanks averaged, mean of 2 arrays, mostly near background
Relative to: not given
Reading: higher = stronger binding
Residues (chain): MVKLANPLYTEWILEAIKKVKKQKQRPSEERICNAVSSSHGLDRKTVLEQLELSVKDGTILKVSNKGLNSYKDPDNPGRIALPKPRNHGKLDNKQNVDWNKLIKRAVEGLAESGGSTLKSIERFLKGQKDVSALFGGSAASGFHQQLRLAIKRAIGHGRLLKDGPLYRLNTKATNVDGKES
| Sequence | E-score |
| --- | --- |
| ACACGTGC | 0.0931 |
| AAGGGCAG | -0.031 |
| GAGGTTAA | -0.093 |
| CTGTGTTC | -0.145 |
| GATAAAGC | -0.0486 |
| GAGGAAAA | -0.115 |
| GGGTTCAA | 0.0421 |
| AAGGCAGC | -0.0429 |
| TGGGCACA | 0.0104 |
| TATACAAA | -0.0655 |
| CTCGACTA | -0.203 |
| CGATTGCA | 0.047 |
| AGCGGTAG | 0.0611 |
| CCGTTCAC | 0.141 |
| CTAAAAAA | -0.133 |
| ACCTTCCC | -0.122 |
| CTGGTCAC | -0.121 |
| ACAATCGC | 0.167 |
| CTTAGGTC | -0.095 |
| AGACCCTC | -0.0491 |
| GACGGCGC | 0.356 |
| AAGTCTAA | -0.0867 |
| CGTTACTC | 0.00972 |
| AATGACAT | 0.038 |
| CCAGCTAC | -0.222 |

Series 3
Target: CCND2, cyclin fold, Cln2 fusion (human)
Technique: yeast growth competition, sequencing
Medium: yeast
Notes: weak parent motif
Relative to: not given
Reading: higher = stronger binding
Parent: HIRA docking peptide (human); SLSKRKLELEVET
| Substitution | normalised enrichment score |
| --- | --- |
| SLSKRKLELEVEA [T13A] | 0.365 |
| SLSARKLELEVET [K4A] | -0.0808 |
| SLAKRKLELEVET [S3A] | 0.045 |
| SLSKRALELEVET [K6A] | 0.246 |
| SLSKRKLEFEVET [L9F] | 0.227 |
| SLSKRKLALEVET [E8A] | 0.403 |
| SLSKKKLEFEVET [R5K L9F] | 0.0222 |
| ALSKRKLELEVET [S1A] | 0.455 |
| SLSKRKLELEVAT [E12A] | -0.185 |

Series 4
Target: RNA binding protein fox-1 homolog 2, RRM domain, GST-SBP tag (RBFOX2, Homo sapiens, UniProt O43251-10, residues 100-194)
Technique: RNA Bind-n-Seq
Form: RNA
Medium: in vitro
Tested at: 365 nM
Notes: natural RNA segment, single round, ends assumed
Relative to: no-protein control
Reading: higher = stronger binding
All sequences stand within: GGGAGUUCUACAGUCCGACGAUC … UGGAAUUCUCGGGUGCCAA
Construct (chain): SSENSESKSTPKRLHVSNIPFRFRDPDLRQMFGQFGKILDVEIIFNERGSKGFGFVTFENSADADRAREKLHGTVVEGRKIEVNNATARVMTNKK
| Sequence | RBNS enrichment (R) |
| --- | --- |
| UCCUUGACCAUGUCUCCCACUCCACCUGCAAGUGAUUGCUGCCAUCUGUCCUGGGUGGGAUGCACCGAGCUAGUCACGGGUGUCGGAUCAGAUCUUUUAAAAACACUUGU | 0.523 |
| GCCUAGGUGUGCUCCAGGUUGCCUGUGGGUUUCCUUUCUGUGAUGGGAUUUAGUGUAGACAUUCUUGCAAAACGGUCACUUUAAAUAAAAUGGGAAAUUGCUGCUCCAUG | 0.519 |
| UGAAAUAAAUAGUGCAAAUGUGUAGGAAUAAUUAGAUUGCAGUUUCCAUACAUCCGCAAGCCCAGUUAGUUGAAACUGCAAUCAAUAUUUACCUUACAACCUUUCCAUUA | 1.26 |
| CUUCUUUUCAGUAAAACUUUAGGAGAUGUUAUGGGGAAAGGGAGGGAACAGAAAUCCUUGAACUUUUUAUUUGGCGUGUGCCAUGUUAUGAUCAUGUACCUUUUCAAUAA | 0.846 |
| AAUUUGGCAUGGAUUAAACAACCUCUACCACACUAUAGCUCUCACAUAGGCUGAACAUUUUCCUAAAUUCUACCUGUGCAGACACUGAGGGGCUCUCUACCUUUGAAACU | 0.292 |
| UGAUAAAGAAAAUGAUAAAUUUUCUGUUGUGCAUUCAAUUCUUAUUUUAAAUAAGACUAAGUAUAGGCAUUGUACCUGACAUUGCUACGUUUCUACCAGUGUUUCAAUUU | 0.582 |
| GAGGAACACAACAUUAAGCCAUUAGAAUAGAAGAGCUGUUGUCUCCUGUUUCUCUAACACUAACAUGGAUAACCUAAGGGAAGUGCCAGCCGCUGUUGGCAGGGUAUUAA | 0.586 |
| AUGGGCAUACAAGGUGAGUUGUACGUAGAACUAAAUCCUUGAGUGUUUCCCACCUGACUCUACUAUACUCUUCCUGAUCACCAUGUGGCCUAAGAAUAUAUACUAUGGAG | 0.378 |
| UGUGUUUUAUUGUGGUAAUUAUGUUUUGUGAUUCAAACUUCUGUGUACUGGGUGAUGCACCCAUUGUGAUUGUGGAAGAUAGAAUUCAAUUUGAACUCAGGUUGUUUAUG | 1.01 |
| UAAAAGGAAAAAUAAGAAAAAAAAUGUAAGAAAUCACAUGGCUAUUUAGUUUCAUGCACAGUUGCAAUAUUUUCUUCAAAAAUAAAACUCUGUACAAACUUUGGGCCCGA | 0.504 |
| GCUGUCUGGGACCGGAAACCAGCUUUGUCUCCAGGUAGAGACAACAUCCUGUGACUGCCAGGCAGAAAGGACAGGGCCCAGGUCAGCCUCAGUCUGCUGUGCCUCCAGAC | 0.391 |
| AGUGUCUACCUUGGUACGCAGCCACCUCCUGCAUGCUGUGCAUGUUAUUGGGACUUGUAUUAUAGGUGAUGGUAUGUGAGAAUCCAGUUGGGACUCGCUGUUGCCAUCCU | 1.21 |

Series 5
Target: ABI1, truncated, D143A, DHFR fusion (Arabidopsis thaliana, UniProt P49597)
Technique: DHFR PCA, dose-response
Medium: yeast
Notes: Hill fit, not affinity, not high confidence
With: (+)-ABA, dose series
Reading: lower = more sensitive
Parent: PYL1, truncated, DHFR fusion (Arabidopsis thaliana, UniProt Q8VZS8); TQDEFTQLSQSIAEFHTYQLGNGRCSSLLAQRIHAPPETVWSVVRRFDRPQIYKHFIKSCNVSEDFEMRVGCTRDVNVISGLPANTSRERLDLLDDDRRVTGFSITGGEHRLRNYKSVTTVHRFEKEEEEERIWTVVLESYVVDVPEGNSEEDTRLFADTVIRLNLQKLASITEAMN
| Substitution | ABA EC50 |
| --- | --- |
| Y115R | 0.113 µM |
| E89R | 0.719 µM |
| T135L | 1440 µM |
| V40Y | 9.29 µM |
| S87M | 0.482 µM |
| F103K | 4.65 µM |
| K168N | 0.618 µM |
| P83I | 2080 µM |
| A84M | 0.949 µM |
| L94P | 12.8 µM |
| K58P | 1060 µM |
| E128H | 3.49 µM |
| G102P | 11.1 µM |
| N149M | 10.4 µM |
| I33K | 473 µM |
| N165T | 753 µM |
| A35P | 0.405 µM |
| I57E | 701 µM |
| T119H | 18.3 µM |
| N149L | 291 µM |

Excerpt of the above (series 4):
| Sequence | RBNS enrichment (R) |
| --- | --- |
| GCCUAGGUGUGCUCCAGGUUGCCUGUGGGUUUCCUUUCUGUGAUGGGAUUUAGUGUAGACAUUCUUGCAAAACGGUCACUUUAAAUAAAAUGGGAAAUUGCUGCUCCAUG | 0.519 |
| UGAAAUAAAUAGUGCAAAUGUGUAGGAAUAAUUAGAUUGCAGUUUCCAUACAUCCGCAAGCCCAGUUAGUUGAAACUGCAAUCAAUAUUUACCUUACAACCUUUCCAUUA | 1.26 |
| CUUCUUUUCAGUAAAACUUUAGGAGAUGUUAUGGGGAAAGGGAGGGAACAGAAAUCCUUGAACUUUUUAUUUGGCGUGUGCCAUGUUAUGAUCAUGUACCUUUUCAAUAA | 0.846 |
| AAUUUGGCAUGGAUUAAACAACCUCUACCACACUAUAGCUCUCACAUAGGCUGAACAUUUUCCUAAAUUCUACCUGUGCAGACACUGAGGGGCUCUCUACCUUUGAAACU | 0.292 |
| UGAUAAAGAAAAUGAUAAAUUUUCUGUUGUGCAUUCAAUUCUUAUUUUAAAUAAGACUAAGUAUAGGCAUUGUACCUGACAUUGCUACGUUUCUACCAGUGUUUCAAUUU | 0.582 |
| GAGGAACACAACAUUAAGCCAUUAGAAUAGAAGAGCUGUUGUCUCCUGUUUCUCUAACACUAACAUGGAUAACCUAAGGGAAGUGCCAGCCGCUGUUGGCAGGGUAUUAA | 0.586 |
| AUGGGCAUACAAGGUGAGUUGUACGUAGAACUAAAUCCUUGAGUGUUUCCCACCUGACUCUACUAUACUCUUCCUGAUCACCAUGUGGCCUAAGAAUAUAUACUAUGGAG | 0.378 |
| UGUGUUUUAUUGUGGUAAUUAUGUUUUGUGAUUCAAACUUCUGUGUACUGGGUGAUGCACCCAUUGUGAUUGUGGAAGAUAGAAUUCAAUUUGAACUCAGGUUGUUUAUG | 1.01 |
| UAAAAGGAAAAAUAAGAAAAAAAAUGUAAGAAAUCACAUGGCUAUUUAGUUUCAUGCACAGUUGCAAUAUUUUCUUCAAAAAUAAAACUCUGUACAAACUUUGGGCCCGA | 0.504 |
| GCUGUCUGGGACCGGAAACCAGCUUUGUCUCCAGGUAGAGACAACAUCCUGUGACUGCCAGGCAGAAAGGACAGGGCCCAGGUCAGCCUCAGUCUGCUGUGCCUCCAGAC | 0.391 |
| AGUGUCUACCUUGGUACGCAGCCACCUCCUGCAUGCUGUGCAUGUUAUUGGGACUUGUAUUAUAGGUGAUGGUAUGUGAGAAUCCAGUUGGGACUCGCUGUUGCCAUCCU | 1.21 |
